Experimental data pooled from the literature.
Compare with care: the assays were run in different laboratories.

SMILES = CCCCC1(CCCC)CN(c2ccccc2)c2cc(SC)c(OCC(=O)N[C@@H](C(=O)NCC(=O)O)c3ccccc3)cc2S(=O)(=O)C1; system = human, plasma; setting = oral, 15 mg once daily, day 1, geometric mean; AUC(0-t) = 1.75 ng·h/mL
SMILES = CCCC[C@H](NC(C)=O)C(=O)N[C@H]1CCC(=O)NC[C@@H](C(=O)N[C@@H](Cc2c[nH]c3ccccc23)C(N)=O)NC(=O)[C@H](CCCNC(=N)N)NC(=O)[C@@H](Cc2ccccc2)NC(=O)[C@H](Cc2c[nH]cn2)NC1=O; system = female Sprague-Dawley rat, plasma; setting = subcutaneous, 25 mg/kg, multiple doses, once daily; AUC(0-t) = 11900 ng·h/mL
SMILES = C#C[C@]1(CO)O[C@@H](n2cnc3c(N)nc(F)nc32)C[C@@H]1O; system = human, plasma; setting = oral, 30 mg, single dose, fasted; AUC(0-t) = 3.74 µM·h
SMILES = CNC(=O)c1ccc(-c2cnc3ncc(Cc4ccc5ncccc5c4)n3n2)cc1F; system = human mild hepatic impairment; setting = oral, 200 mg single dose, adjusted geometric mean; AUC(0-t) = 4730 ng·h/mL
SMILES = Oc1ccc(/C=C/c2cc(O)cc(O)c2)cc1; system = male Sprague-Dawley rat, plasma; setting = intravenous, 10 mg/kg; AUC(0-t) = 1840 ng·h/mL
SMILES = Cc1nc2cccc(OCC(C)(C)C(=O)NC(C)C)c2c(N)c1C(=O)O; system = female Sprague-Dawley rat, plasma; setting = oral, 10 mg/kg, single dose; AUC(0-t) = 49.2 ng·h/mL
SMILES = CNCc1ccc(-c2[nH]c3cc(F)cc4c3c2CCNC4=O)cc1; system = human, fed high-fat meal, plasma; setting = oral, 600 mg, 24 h, single dose, median; AUC(0-t) = 10900 ng·h/mL
SMILES = CCCOc1ccc([C@H]2CNC(=O)N2c2ccc3[nH]cnc3c2)cc1; system = human, plasma; setting = oral, 100 mg, single dose, fasted; AUC(0-t) = 685 ng·h/mL

A few entries again:
SMILES = CCCOc1ccc([C@H]2CNC(=O)N2c2ccc3[nH]cnc3c2)cc1; system = human, plasma; setting = oral, 100 mg, single dose, fasted; AUC(0-t) = 685 ng·h/mL
